Measured values gathered from unrelated publications.
A part holds a random share of what one study measured. Substitutions count along the parent as printed.

Set 1 — method: competition protein-binding microarray; form: double-stranded DNA, one strand shown; matrix: in vitro; tested at: 2 µM; together with: Cbf1 competitor, 0.05 µM; reading: higher = stronger binding; quantity: fluorescence intensity; all sequences stand within: … GTCTTGATTCGCTTGACGCTGCTG
Target: Phosphate system positive regulatory protein PHO4, full length, GST-tagged (PHO4, Saccharomyces cerevisiae, UniProt P07270, residues 1-312)
Setting: whole 60-bp probe, lowest competitor level
Construct (chain): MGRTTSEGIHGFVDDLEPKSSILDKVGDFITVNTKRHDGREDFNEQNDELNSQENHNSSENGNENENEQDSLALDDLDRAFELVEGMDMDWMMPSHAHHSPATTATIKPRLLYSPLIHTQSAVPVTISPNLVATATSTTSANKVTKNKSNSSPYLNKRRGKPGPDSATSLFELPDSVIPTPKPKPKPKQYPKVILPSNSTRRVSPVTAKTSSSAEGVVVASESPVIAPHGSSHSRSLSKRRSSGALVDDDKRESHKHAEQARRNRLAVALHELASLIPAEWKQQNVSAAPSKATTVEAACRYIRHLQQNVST
CTTTCCCGATCTTTTCACGTGTAATTAGCACATTTG: 12100 a.u.
GTTGAGGTGAACCAGCTCGTGGAGTAGACCGTTGAG: 8390 a.u.
AAATTACTAAGTTGTCACAGGACTTACCCCGTATGA: 3320 a.u.
ATTGGTGCAATTCCGCACGTTCCAACTTTCCGATGC: 11800 a.u.
AAAGCGGTAATTTGAGTAGTGGGTGCAGATATCTAT: 4670 a.u.
CTTCTGTAAATTTGAGATGTGGGTGGACGCGCCCCG: 3980 a.u.
GTCTTGTCTCATTGACTCGTGGGTGTCCCCACTTCA: 10300 a.u.
GTCGTCTATGGGTGTTGCGTGGGTAGTTCTCGCGCT: 7180 a.u.
GAGTGGGCTGGCGGCAGCATGCAGAGCGTTATCGCT: 6590 a.u.
CATACCCAACCTTGATTGGTGGGTGAAGATATTTGT: 3340 a.u.
TTCGCCCACAAAAGTTGCGTGCCGATCTAGTTCCAG: 6860 a.u.
TCATTTCGAATCGCGTACGTGGCCGGTTGTGGCTGG: 7040 a.u.
ATGCCCTGCTATCTTCACGTGGTCGAATAGCTTATT: 17100 a.u.
AAATTACTAAGTTGCTGAGTGGGTGACGCCGTATGA: 4410 a.u.
CTAACGAAGGTTTGAGTTGTGGGTGACAAGCCAAGT: 3770 a.u.
GCAACACTAGAGTCCCACGTGGAAGCTGGGGTACCC: 15000 a.u.
TGCGCAACAACTTTTCACGTGTATTTATGTCTAGAA: 13700 a.u.
CAAGAGTTCGCGGTATACGTGCGGACCTAAACGAGG: 7110 a.u.
CATACCCAACCTTGTCACGATACTTAAGATATTTGT: 6800 a.u.
CATACCCAACCTTGGGGGGTGGGTGAAGATATTTGT: 5460 a.u.
AAATTACTAAGTTGGTCTGTGGGTGACGCCGTATGA: 3760 a.u.

Set 2 — target: CCND1, cyclin fold, Cln2 fusion (human); method: yeast growth competition, sequencing; matrix: yeast; setting: strong parent motif; relative to: not given; reading: higher = stronger binding; quantity: normalised enrichment score
Starting sequence: RBL2 docking peptide (human); STTRRRLFVENDS; partner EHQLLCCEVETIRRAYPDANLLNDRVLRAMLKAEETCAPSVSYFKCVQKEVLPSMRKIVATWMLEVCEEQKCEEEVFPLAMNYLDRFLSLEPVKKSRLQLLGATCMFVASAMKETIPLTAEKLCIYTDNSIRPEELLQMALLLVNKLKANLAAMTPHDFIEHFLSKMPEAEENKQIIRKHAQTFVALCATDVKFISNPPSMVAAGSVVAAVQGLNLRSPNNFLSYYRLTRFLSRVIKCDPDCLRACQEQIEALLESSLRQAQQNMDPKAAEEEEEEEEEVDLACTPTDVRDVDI
STTMRRLFVENDS [R4M]: 0.346
STTGRRLFVENDS [R4G]: -0.383
SMTRRRLFVENDS [T2M]: 1.15
STTRRRLWVENDS [F8W]: 0.0686
STLRRRLFVENDS [T3L]: -0.122
STTRNRLFVENDS [R5N]: -0.055
STTRRRNFVENDS [L7N]: -0.381
STTRRRLFVEKDS [N11K]: 0.529
STTRRRLFVEYDS [N11Y]: 0.253
STTRRRLVVENDS [F8V]: 0.107
STTRRRQFVENDS [L7Q]: 0.113
STTRRNLFVENDS [R6N]: 0.485
CTTRRRLFVENDS [S1C]: 0.88
STTRRRLFVEDDS [N11D]: 2.23

Set 3 — method: protein binding microarray; form: double-stranded DNA, one strand shown; matrix: in vitro; tested at: not given; relative to: not given; reading: higher = stronger binding; quantity: E-score
Target: Histone acetyltransferase KAT6A, both winged helices, GST fusion (KAT6A, Homo sapiens, UniProt Q92794, residues 1-181)
Setting: 8-mer, flanks averaged, mean of 2 arrays, mostly near background
Residues (chain): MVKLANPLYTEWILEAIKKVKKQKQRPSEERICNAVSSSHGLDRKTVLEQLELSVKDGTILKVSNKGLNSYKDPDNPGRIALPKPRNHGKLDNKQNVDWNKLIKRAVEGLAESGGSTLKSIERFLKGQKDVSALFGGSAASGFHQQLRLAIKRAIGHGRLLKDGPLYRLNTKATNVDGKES
CTCATCAA: -0.053
CAGGCGTA: -0.00346
CAAGAACG: -0.0252
AGACACGC: 0.185
CCCAAGTA: -0.128
AATGTCGC: 0.0788
ATCACTAC: -0.142
TACGCAGA: 0.0218
AGGCTAAC: -0.167
TGGAGCCA: -0.222
GCTTTCGA: -0.00673
AGGCCGGA: 0.0152
ACCGAAAT: 0.0396
ATAAAAAC: 0.0384
CTTGTCTA: -0.104
TACAATAA: -0.0959
AGAGTTCA: -0.268
GGACAGCA: -0.128
AAGGGTCC: 0.061
ACGTGACT: 0.0205
AAATCATT: -0.0881
AGCTTTGG: -0.123
ACCGAGAG: -0.094
AGCCGGCG: 0.373
AGATCGGC: 0.15

Set 4 — method: DHFR PCA, deep sequencing; matrix: yeast; together with: (+)-ABA 2500 µM; relative to: wild-type fitted maximum; reading: higher = stronger binding; quantity: relative binding score
Target: ABI1, truncated, D143A, DHFR fusion (Arabidopsis thaliana)
Setting: methotrexate growth selection, single substitutions
Starting sequence: PYL1, truncated, DHFR fusion (Arabidopsis thaliana); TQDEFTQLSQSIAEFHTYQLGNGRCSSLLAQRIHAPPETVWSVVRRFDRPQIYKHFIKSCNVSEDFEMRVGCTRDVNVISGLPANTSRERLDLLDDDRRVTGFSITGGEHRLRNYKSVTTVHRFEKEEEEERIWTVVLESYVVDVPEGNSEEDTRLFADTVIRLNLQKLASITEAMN
R24C: 98.1%
T101C: 97.8%
D159E: 94.5%
V137W: 6.11%
D96C: 88.5%
S63H: 95%
S87L: 10.5%
R163S: 85.3%
I162Y: -8.7%
A13E: 103%

Set 5 — method: RNA Bind-n-Seq; form: RNA; matrix: in vitro; tested at: 1 µM; setting: whole 134-nt RNA, ends assumed; together with: 150 mM KCl; relative to: input library; reading: higher = stronger binding; quantity: log2 enrichment
Target: Ras GTPase-activating protein-binding protein 1, RRM domain (G3BP1, Homo sapiens, UniProt Q13283)
UniProt Q13283, sequence (whole entry, looked up): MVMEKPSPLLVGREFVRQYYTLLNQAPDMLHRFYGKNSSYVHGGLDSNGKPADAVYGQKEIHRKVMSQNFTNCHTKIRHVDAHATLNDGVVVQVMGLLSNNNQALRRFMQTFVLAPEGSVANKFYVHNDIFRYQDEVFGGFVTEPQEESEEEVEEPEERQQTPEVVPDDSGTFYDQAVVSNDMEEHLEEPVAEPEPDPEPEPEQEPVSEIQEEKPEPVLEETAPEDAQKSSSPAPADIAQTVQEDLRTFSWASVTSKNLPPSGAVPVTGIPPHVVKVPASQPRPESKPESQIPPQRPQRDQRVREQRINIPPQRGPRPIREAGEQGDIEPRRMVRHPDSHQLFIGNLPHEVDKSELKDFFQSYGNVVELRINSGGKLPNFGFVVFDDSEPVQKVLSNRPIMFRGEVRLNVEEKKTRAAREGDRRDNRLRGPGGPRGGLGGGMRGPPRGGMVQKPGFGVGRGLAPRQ
All sequences stand within: GGGAGUUCUACAGUCCGACGAUC … UGGAAUUCUCGGGUGUCAAGG
UAACUUUAGAGGAGGAUCUGAUGGAUUUGGCAGUGGACGUGGAUUUGGGGAUGGCUAUAAUGGGUAUGGAGGAGGACCUGGAGGUGGCAA: -0.738
UAACUUUAGAGGAGGAUCUGAUGGAUAUGGCAGUGGACGUGGAUUUGGGGAUGGCAAUAAUGGGUAUGGAGGAGGACCUGGAGGUGGCAA: -0.617
GUCCUGUGCUACACAUCGUAUGUACCGAAUCGGGGUUUUUGGGUUUUUGGUUUUUGGGGAAAGUAUUAUGUUACGCCGUUCGGAUCUGCA: -0.112
AGUCCUGUGCUACACAUCGUAUGUACCGAAUCGGGGAAAGGGGUGGGGUUUUUGGGGAAAGUAUUAUGUUACGCCGUUCGGAUCUGCACU: 0.746
CACAGACAACACGCACCCACACAGACACAGAGGGAAGGGGUUGGGAUGGGGACAGGGUGCACAGCAGGGCGGGGUAGGACCCCGGCCCCU: -0.491
CUCAAGUCCUGUGCUACACAUCGUAUGUACCGAAUCGGUUGGUUGGGUUGGGGAAAGUAUUAUGUUACGCCGUUCGGAUCUGCACUUCCA: -0.215
CACAGACAACACGCACCCACACAGACACAGAGGGAAGGGGUUGGGAUGGGGACAGGGUGCACGGCAGGGCGGGGUAGGACCCCAGCCCCU: 0.0382
AGUCCUGUGCUACACAUCGUAUGUACCGAAUCGGGGUUUGGGGUUUUUGGGGAGGGGAAAGUAUUAUGUUACGCCGUUCGGAUCUGCACU: 1.16
AGUCCUGUGCUACACAUCGUAUGUACCGAAUCGGGCCCCCGGGCCCCCGGCCCCCGGGAAAGUAUUAUGUUACGCCGUUCGGAUCUGCAC: -0.717
CACAGACAACACGCACCCACACAGACACAGAGGGAAGGGGUUGGGAUGGGGACAGGGUAAACAGCAGGGCGGGGUAGGACCCCAGCCCCU: -0.131
CACAGACAACACGCACCCACACAGACACAGAGGGAAGGGGUUGGGAUGGGGACAGGGUGCACAGCAGGGCGGGGUAGGACCCCAGCCCCU: -0.0698
UGGGAGGUGGAUUUUGUUUAUUUUUUUAGCUCAUUUCCAGGGCUGGGAAUUUUUUUUUAAUAUGUGUCAUGAAUAAAGUUGUUUUUGAAA: 1.44
ACCAGGCAGGUGGGCAUCUUUGGGAAGUGGGGCAAGGGGGGGAUAGGGAGGGGGGUAACACUUUGGGAACAGGUGGUCCCAGGUCGUUUC: -0.704
UGGGAGGUGGAUUUUGUUUAUUUUUUUAGCUCAUUUCCAGGGGUGGGAAUUUUUUUUUAAUAUGUGUCAUGAAUACAGUUGUUUUUGAAA: 1.41

Further values, each from its own experiment
PhoQ, residues 284 288 289 292 302 303 SNSSNI — fold induction (PhoP, residues 12 14 15 18 19 NMSSL (Escherichia coli, UniProt P23836); Sort-seq, refers to: YFP reporter; E. coli; PhoQ-PhoP variant library, together with: 10 µM Mg2+; relative to: high Mg2+ state, higher = stronger signaling): 2.3

For quick reference, copied from above (set 1):
AAATTACTAAGTTGTCACAGGACTTACCCCGTATGA: 3320 a.u.
ATTGGTGCAATTCCGCACGTTCCAACTTTCCGATGC: 11800 a.u.
AAAGCGGTAATTTGAGTAGTGGGTGCAGATATCTAT: 4670 a.u.
CTTCTGTAAATTTGAGATGTGGGTGGACGCGCCCCG: 3980 a.u.
GTCTTGTCTCATTGACTCGTGGGTGTCCCCACTTCA: 10300 a.u.
GTCGTCTATGGGTGTTGCGTGGGTAGTTCTCGCGCT: 7180 a.u.
GAGTGGGCTGGCGGCAGCATGCAGAGCGTTATCGCT: 6590 a.u.
